Published values from different studies.
A part holds a random share of what one study measured.
Chain of UniProt P42336 (whole entry, unmodified, looked up): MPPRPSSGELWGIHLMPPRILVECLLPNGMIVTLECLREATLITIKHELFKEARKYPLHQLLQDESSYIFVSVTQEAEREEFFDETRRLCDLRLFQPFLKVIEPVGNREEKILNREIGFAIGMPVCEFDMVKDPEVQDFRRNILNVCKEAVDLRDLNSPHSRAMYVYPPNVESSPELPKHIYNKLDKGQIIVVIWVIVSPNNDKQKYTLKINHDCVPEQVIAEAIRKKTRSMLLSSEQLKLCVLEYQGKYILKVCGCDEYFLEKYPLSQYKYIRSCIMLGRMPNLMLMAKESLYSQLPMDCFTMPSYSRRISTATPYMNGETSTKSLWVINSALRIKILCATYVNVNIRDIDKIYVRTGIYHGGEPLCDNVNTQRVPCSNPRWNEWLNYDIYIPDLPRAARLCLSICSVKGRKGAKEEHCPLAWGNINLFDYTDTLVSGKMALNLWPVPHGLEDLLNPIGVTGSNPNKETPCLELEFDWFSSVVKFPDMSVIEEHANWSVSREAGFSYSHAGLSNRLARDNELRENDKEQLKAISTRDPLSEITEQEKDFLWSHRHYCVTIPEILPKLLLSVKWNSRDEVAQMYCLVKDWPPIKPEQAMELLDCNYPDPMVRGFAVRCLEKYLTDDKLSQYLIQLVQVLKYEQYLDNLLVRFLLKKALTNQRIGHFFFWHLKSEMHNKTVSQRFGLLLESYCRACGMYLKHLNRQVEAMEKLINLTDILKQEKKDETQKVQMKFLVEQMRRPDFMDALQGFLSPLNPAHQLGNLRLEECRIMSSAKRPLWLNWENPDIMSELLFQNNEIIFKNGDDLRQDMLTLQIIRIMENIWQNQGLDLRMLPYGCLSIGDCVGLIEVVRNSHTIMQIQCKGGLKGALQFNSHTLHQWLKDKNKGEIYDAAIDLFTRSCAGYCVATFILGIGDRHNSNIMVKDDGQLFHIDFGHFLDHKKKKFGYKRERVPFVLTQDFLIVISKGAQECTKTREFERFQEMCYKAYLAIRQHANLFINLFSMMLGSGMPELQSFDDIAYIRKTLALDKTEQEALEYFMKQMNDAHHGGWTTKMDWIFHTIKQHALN
Chain of UniProt Q9HC98 (whole entry, looked up): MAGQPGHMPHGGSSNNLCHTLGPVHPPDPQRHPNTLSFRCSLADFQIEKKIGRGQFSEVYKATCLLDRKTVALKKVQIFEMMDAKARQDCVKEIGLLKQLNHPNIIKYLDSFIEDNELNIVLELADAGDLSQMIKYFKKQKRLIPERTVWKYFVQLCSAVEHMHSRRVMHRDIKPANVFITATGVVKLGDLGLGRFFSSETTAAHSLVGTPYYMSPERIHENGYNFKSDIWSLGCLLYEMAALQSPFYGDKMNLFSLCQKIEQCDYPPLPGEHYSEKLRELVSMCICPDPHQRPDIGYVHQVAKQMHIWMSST
Chain of UniProt O95382 (whole entry, looked up): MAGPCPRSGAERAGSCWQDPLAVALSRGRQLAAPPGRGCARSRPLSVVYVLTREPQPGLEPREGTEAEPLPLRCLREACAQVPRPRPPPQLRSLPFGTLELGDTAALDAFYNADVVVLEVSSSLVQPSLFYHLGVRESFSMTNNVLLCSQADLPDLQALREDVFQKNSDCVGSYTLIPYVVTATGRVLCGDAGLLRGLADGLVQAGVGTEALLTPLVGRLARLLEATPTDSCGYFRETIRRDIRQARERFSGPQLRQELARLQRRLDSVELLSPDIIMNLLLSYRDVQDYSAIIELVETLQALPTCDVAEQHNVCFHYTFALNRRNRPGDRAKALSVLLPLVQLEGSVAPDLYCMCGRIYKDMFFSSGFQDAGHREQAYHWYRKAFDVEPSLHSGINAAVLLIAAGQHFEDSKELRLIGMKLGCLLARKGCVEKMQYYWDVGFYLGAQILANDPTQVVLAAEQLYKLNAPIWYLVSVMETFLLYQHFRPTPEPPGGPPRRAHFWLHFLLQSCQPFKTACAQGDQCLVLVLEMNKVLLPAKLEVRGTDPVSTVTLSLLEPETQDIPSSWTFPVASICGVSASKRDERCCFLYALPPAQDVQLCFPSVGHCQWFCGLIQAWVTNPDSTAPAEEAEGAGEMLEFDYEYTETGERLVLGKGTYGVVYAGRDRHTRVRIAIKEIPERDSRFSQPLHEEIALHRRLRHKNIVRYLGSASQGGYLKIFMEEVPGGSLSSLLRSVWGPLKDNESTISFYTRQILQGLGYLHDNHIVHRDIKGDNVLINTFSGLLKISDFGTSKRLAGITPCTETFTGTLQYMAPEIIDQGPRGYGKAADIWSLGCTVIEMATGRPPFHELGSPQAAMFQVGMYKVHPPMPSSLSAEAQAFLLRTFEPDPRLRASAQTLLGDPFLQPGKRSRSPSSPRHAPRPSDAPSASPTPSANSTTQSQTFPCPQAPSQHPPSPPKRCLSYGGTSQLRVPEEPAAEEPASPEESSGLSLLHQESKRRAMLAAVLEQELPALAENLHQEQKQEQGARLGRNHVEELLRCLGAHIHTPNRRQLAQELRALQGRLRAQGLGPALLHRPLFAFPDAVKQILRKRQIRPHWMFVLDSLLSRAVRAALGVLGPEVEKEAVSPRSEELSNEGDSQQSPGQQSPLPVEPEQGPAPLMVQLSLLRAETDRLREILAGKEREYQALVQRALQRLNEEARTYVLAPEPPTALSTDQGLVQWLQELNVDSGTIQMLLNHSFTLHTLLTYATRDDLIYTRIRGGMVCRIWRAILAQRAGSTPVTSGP

Block 1 — technique: competition with immobilised ligand
SMILES: CS(=O)(=O)N1CCCC(NC(=O)[C@H](CCC2CCCCC2)NC(=O)c2ccc(CNc3ncnc4c3nnn4-c3ccccc3)cc2)C1 (stereo partly shown)
| target | assay | setting | remaining binding [%] |
| --- | --- | --- | --- |
| Mitogen-activated protein kinase kinase kinase 6 (MAP3K6, Homo sapiens, UniProt O95382) | cell-free assay | 0.1 µM | 100 |
| Serine/threonine-protein kinase Nek6 (NEK6, Homo sapiens, UniProt Q9HC98) | cell-free assay | 0.1 µM | 86 |
| Epidermal growth factor receptor (EGFR, Homo sapiens, UniProt P00533, L861Q) | cell-free assay | 0.1 µM | 100 |
| Phosphatidylinositol 4,5-bisphosphate 3-kinase catalytic subunit alpha isoform (PIK3CA, Homo sapiens, UniProt P42336, I800L) | binding | 1 µM | 44 |

Block 2 — technique: RNA Bind-n-Seq; molecule type: RNA; medium: in vitro; concentration: 100 nM; relative to: input RNA pool; reading: higher = stronger binding
Target: RING finger protein unkempt homolog, zinc fingers 1-6, SBP tag (UNK, Homo sapiens, UniProt Q9C0B0, residues 30-357)
Chain of UniProt Q9C0B0 (30-357, looked up): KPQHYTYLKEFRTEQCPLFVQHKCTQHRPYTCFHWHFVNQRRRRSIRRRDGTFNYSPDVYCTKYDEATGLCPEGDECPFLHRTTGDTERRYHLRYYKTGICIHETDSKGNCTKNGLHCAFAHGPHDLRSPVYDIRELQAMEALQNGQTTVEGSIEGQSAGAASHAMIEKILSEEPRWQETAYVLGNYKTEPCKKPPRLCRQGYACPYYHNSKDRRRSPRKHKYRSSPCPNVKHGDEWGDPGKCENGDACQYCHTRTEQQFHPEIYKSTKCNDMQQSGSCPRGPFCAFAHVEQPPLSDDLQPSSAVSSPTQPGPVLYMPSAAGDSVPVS
Setting: RNA with constant flanks, vertebrate orthologous sites, ends assumed
All sequences stand within: GGGAGUUCUACAGUCCGACGAUC … CAACAGAGGAUUGAGCAUCA
| Oligonucleotide | bound/input enrichment [ratio] |
| --- | --- |
| UGUUGAUUUCUGAUUUCUAAUUUAUUUUGUUUUGUUAUGGUUUUUUGAUUUGCUAUACCAAAAUGGUGAUCGUAAAAAUUGACCUGUAAUGGGCGUUGCUAUAGUGACAUGCAUUAUGUU | 0.453 |
| GUGCAAGGAGAUUAUUCCAACUAGUGAAUUUAUUAACAGUAAGUUGACAGCAAAAGCAAAUAGGCAGCUUCAAGAUCCUUUAGUAAUCAUGACAGGAAACAUCCCAACAUGGCUUACUGA | 0.79 |
| AUUUAAAAUUCCAGUAGUUAUAUUUAAUGAUCUCACCCCUGAGUUUCUUUUUCAUUAAAGUAGCUUUCAUUUCUAUUAUUCCAAUUUACUGAUAUGAACAAAUAGAAGGUCCGUGUGAGC | 0.605 |
| CCCUCUGAACCCCAUAUCUUCUGUUUCAUAGUGCAGAAGUAAUAUUUUCAAUUGUAAUAUUAGUGGACUUGUUUAAUUUUAGAGAAACUUUCAGUACAGAUACUGUGAGCUUACAUGGAA | 2.17 |
| CAACUCAAUGGUUGAGGGCUCUGAACUCAAAAAGGUUCGUUCUAACUCCAGAAUUUACCAUCGGUAUUUUCUGCUGGACGCCGACAUGCAAAGCCUGAGGUGGGAGCCAUCUAAGAAGGA | 0.0975 |
| CUACACCAGAUAUUUUAACUCUUUUAAAGUUAUAAACGUGCUUUGCUUUUUGCAUUUAAAUAGAAUACUUUUAUAUUGUAAGUGCUUCAGAUGUGUGGGGAUGUUAGUUUGCUCUUAUAU | 0.82 |
| CCUACAAUAAUGAAAACCUACAGGAAAUUUUUUAUUUUUCAUCAUCCCCUUAGGCAUAUUUAGGCUUUUCCCCAGGCAGAUCAUUCUGAGUGUGCGAGUGUGUGUGCACAUGUUACAAAG | 1.11 |
| AAGAAAUGCUGGCUGCCAACCCUCAGGAUCGUCCAGAUGCUUUUGAACUAGAACUCCGAUUAGUACAAAUUGCGUUUAAAGAUAGCAGCUGGGAAACGUGACACAUAUAUUGUUUGCAAA | 2.54 |

Block 3 — cell line: A-375; concentration: 100 µM; time: 36 h
| SMILES | viability [%] |
| --- | --- |
| COc1ccc([C@@H]2OC[C@H]3[C@@H]2CO[C@@H]3c2ccc(O[C@@H]3O[C@H](CO)[C@@H](O)[C@H](O)[C@H]3O)c(OC)c2)cc1OC | 103 |
| C#C[C@]1(O)CC[C@H]2[C@@H]3CCc4cc(OC5CCCC5)ccc4[C@H]3CC[C@@]21C | -2.67 |
| CCCN[C@H]1CCc2nc(N)sc2C1 | 97.4 |

Block 4 — effect on: enzyme activity; action: inhibitor; concentration: 0.5 µM; relative to: control
Target: Serine/threonine-protein kinase N2 (PKN2, Homo sapiens, UniProt Q16513)
Chain of UniProt Q16513 (whole entry, looked up): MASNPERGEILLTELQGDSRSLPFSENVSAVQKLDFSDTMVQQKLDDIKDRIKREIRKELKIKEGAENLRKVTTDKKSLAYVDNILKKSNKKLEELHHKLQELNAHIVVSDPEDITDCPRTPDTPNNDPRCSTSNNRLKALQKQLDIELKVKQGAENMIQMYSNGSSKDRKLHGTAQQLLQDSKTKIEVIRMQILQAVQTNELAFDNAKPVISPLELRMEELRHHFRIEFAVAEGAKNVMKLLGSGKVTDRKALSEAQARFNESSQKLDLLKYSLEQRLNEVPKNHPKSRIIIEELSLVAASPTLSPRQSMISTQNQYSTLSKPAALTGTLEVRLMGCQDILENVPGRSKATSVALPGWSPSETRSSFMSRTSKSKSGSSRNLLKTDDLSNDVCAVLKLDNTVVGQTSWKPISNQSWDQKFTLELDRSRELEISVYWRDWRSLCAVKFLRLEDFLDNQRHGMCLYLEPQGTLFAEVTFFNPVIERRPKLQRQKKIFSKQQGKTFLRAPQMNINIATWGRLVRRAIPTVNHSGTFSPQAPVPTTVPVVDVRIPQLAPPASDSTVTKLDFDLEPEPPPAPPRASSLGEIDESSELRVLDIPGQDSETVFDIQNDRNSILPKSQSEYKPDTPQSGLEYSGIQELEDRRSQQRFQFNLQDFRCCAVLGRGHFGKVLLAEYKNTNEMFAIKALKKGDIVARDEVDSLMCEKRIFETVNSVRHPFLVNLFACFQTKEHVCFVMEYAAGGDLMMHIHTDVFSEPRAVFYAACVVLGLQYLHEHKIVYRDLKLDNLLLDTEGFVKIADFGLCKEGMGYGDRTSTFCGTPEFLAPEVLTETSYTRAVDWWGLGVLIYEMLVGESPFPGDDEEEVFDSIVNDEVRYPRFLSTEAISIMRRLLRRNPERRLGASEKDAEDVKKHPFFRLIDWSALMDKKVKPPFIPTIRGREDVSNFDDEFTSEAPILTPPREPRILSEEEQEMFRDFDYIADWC
| SMILES | remaining activity [%] |
| --- | --- |
| CCN(CC)CCCCN1c2ccccc2Oc2ccc(Cl)cc21 | 72.4 |
| O=C1NC(=O)/C(=C/c2ccc3c(c2)OC(F)(F)O3)S1 | 113 |
| COc1cc2c(Nc3ccc(Br)cc3F)ncnc2cc1OCC1CCN(C)CC1 | 99.7 |
| COc1cccc(-c2cc(=O)c3ccccc3o2)c1N | 81 |
| O=C(c1ccccc1)c1ccc(N2CCOCC2)cc1O | 96.8 |
| O=c1cc(N2CCOCC2)oc2c(-c3ccccc3)cccc12 | 98.6 |
| CN1CCN(c2ccc3nc(-c4c(N)c5c(F)cccc5[nH]c4=O)[nH]c3c2)CC1 | 98.5 |
| N#Cc1cnc2cnc(NCc3cccnc3)cc2c1Nc1ccc(F)c(Cl)c1 | 85.9 |
| Clc1ccc(Nc2nnc(Cc3ccncc3)c3ccccc23)cc1 | 99.9 |
| O=C1Cc2c([nH]c3ccc(Br)cc23)-c2ccccc2N1 | 96.8 |
| O=Nc1c(-c2c(O)[nH]c3ccccc23)[nH]c2ccccc12 | 97.8 |
| CC(C)N(CCC(=O)c1ccc2ccccc2c1)Cc1ccccc1 | 98.7 |
| CCCNC(=O)Nc1ccc(Oc2ncnc3cc(OC)c(OC)cc23)cc1Cl | 99.2 |
| O=C1Nc2ccccc2/C1=C\c1c(Cl)[nH]c2ccccc12 | 96.3 |
| O=C1c2ccccc2-c2nc3nnnn3nc21 | 77.1 |
| c1ccc(-c2n[nH]c3c2oc2ccccc23)cc1 | 97.5 |
| Cc1ccc(S(=O)(=O)/C=C/C#N)cc1 | 81.5 |

Other studies, line by line — species: human; medium: microsomes or S9; concentration: 2 µM; time: 0.5 h
| SMILES | remaining compound |
| --- | --- |
| COc1c(F)c(F)cc2c(=O)c(C(=O)NCCCN3CCCC3=O)cn(C3CC3)c12 | 66.6% |
| c1ccc(-c2nc(Cc3nc4ccccc4[nH]3)no2)cc1 | 35% |

Excerpt of the above (block 4):
| SMILES | remaining activity [%] |
| --- | --- |
| O=Nc1c(-c2c(O)[nH]c3ccccc23)[nH]c2ccccc12 | 97.8 |
| CC(C)N(CCC(=O)c1ccc2ccccc2c1)Cc1ccccc1 | 98.7 |
| CCCNC(=O)Nc1ccc(Oc2ncnc3cc(OC)c(OC)cc23)cc1Cl | 99.2 |
